Assay results of several laboratories.
Lines come from different studies, so protocols differ. Several values in a cell are separate wells, animals, samples, runs or records. Numbers after ± are the reported error.

SMILES | target or system | test | system | conditions | how to read | measurement | value
C[CH2][Hg][S]c1ccccc1C(=O)[O-].[Na+] | BT-12 | cell viability, MTT | – | 10 µM, 72 h | – | inhibition | 95.1%
Cn1cncc1C1=CN(c2ncnc3[nH]cnc23)CCS1 | IGROV-1 | – | – | ovarian cancer | – | CC50 | > 200 µM
COc1ccc(C(=O)NCc2cccnc2)cc1C(=O)NCc1cccnc1 | Plasmodium falciparum | – | 7G8 | – | – | IC50 | 3.16 µM
CC(c1ccccc1)(c1ccc(O)cc1)c1ccc(O)cc1 | HepG2 spheroids | Hoechst flow cytometry | – | 1 µM, 24 h | – | G1 phase cells | 71 ± 1.41%
COc1c(C)c2c(c(O)c1C/C=C(\C)CCC(=O)O)C(=O)OC2 | EJ-28 | cell proliferation | bladder cancer | – | – | IC50 | 0.646 µM
Cn1cc2cc(C(F)(F)c3nnc4ccc(-c5cnn(C6CC6)c5)nn34)c(F)cc2n1 | MKN-45 | annexin V/PI flow cytometry | – | 200 nM, 48 h | – | late apoptotic cells | 44% and 38.1% and 45.5%
CO[C@H]1/C=C\C=C(/C)C(=O)NC2=CC(=O)C(NCCN(C)C)=C(C[C@@H](C)C[C@H](OC)[C@H](O)[C@@H](C)/C=C(\C)[C@@H]1OC(N)=O)C2=O | iPSC-derived cardiomyocytes | concentration-response fit | – | concentration not given | relative to: vehicle | fitted bottom MyBP-C level | 16%
O=S(=O)(c1ccc(O)cc1)c1ccc(O)cc1 | HepG2 spheroids | Hoechst flow cytometry | – | 1 µM, 96 h | – | G1 phase cells | 75.1 ± 5.38%
O=C(O)c1ccc(/C=C2\SC(=S)N(c3cccc(C(F)(F)F)c3)C2=O)cc1 | FRT cells expressing human WT CFTR | short-circuit current | – | 20 µM, together with: forskolin 20 µM | – | CFTR current inhibition | inhibited
CCN(CC)c1ccc(C=NNC(=O)CSc2nc3ccccc3c(=O)n2Cc2ccc(S(N)(=O)=O)cc2)c(O)c1 | SK-OV-3 | NCI five-dose screen | – | – | – | CC50 | > 100 µM
Oc1cc(Cl)ccc1Oc1ccc(Cl)cc1Cl | HepG2 | high content imaging, measured: cell count | – | 24 h, distribution mode 2 | – | point of departure | 18.6 µM
COC(=O)/C(C)=C\C[C@@]12OC(C)(C)[C@@H]3C[C@@H](C=C4C(=O)c5c(O)c6c(c(CC=C(C)C)c5O[C@]431)O[C@](C)(CCC=C(C)C)C=C6)C2=O | iPSC-derived cardiomyocytes | concentration-response fit | – | concentration not given | relative to: vehicle | fitted bottom MyBP-C level | 0%
CC1=CC(=O)c2c(O)cccc2C1=O | MOLT-3 | XTT | – | – | relative to: IC50 MRC-5 over IC50 MOLT-3 | selectivity index | 3.62
Oc1ccc(C(c2ccc(O)cc2)(C(F)(F)F)C(F)(F)F)cc1 | HepG2 spheroids | Hoechst flow cytometry | – | 10 µM, 24 h | – | S phase cells | 7.5 ± 2.57%
CN1[C@@H]2CC[C@H]1C[C@@H](OC(=O)C(CO)c1ccccc1)C2 (stereo partly shown) | Plasmodium falciparum | – | W2 | – | – | IC50 | 5.01 µM
Cc1nn(-c2nc3c(F)cc(F)cc3s2)c(O)c1C(c1ccc(C(F)(F)F)cc1)c1c(C)nn(-c2nc3c(F)cc(F)cc3s2)c1O | RAW-ISG | CCK-8 | – | 6.25 µM | – | viability | 106% and 98.6% and 102% and 101% and 103%
CC(C)N1CCC(NC2CCN(c3cccc(-c4cc5cc(F)ccc5[nH]4)c3)CC2)CC1 | SNB-75 | – | – | – | – | GI50 | 1450 nM
Nc1ncc(-c2nc(N3CCOCC3)nc(N3CCOCC3)n2)c(C(F)F)n1 | SW948 | – | – | 72 h | – | GI50 | 118 nM
Cn1nccc1Nc1nccc(-c2ccn([C@H](CO)c3ccc(Cl)c(F)c3)c(=O)c2)n1 | HCT116 | IncuCyte | – | concentration not given, 4 (unit not given) | – | PI-positive cells | 2.58 count and 2 count

SMILES | target or system | test | system | conditions | how to read | measurement | value
N.N.[Cl][Pt][Cl] | A2780cis | MTT | – | – | relative to: A2780cis over A2780 IC50 | resistance factor | ~37 fold
Nc1ncnc2c1ncn2[C@@H]1O[C@@H]2COP(=O)(O)O[C@H]3[C@@H](O)[C@H](n4cnc5c(=O)[nH]cnc54)O[C@@H]3COP(=O)(O)O[C@H]2[C@H]1O | HFF-1 | RNA sequencing, measured: Reactome R-HSA-4420332 | – | downregulated pathway | relative to: Zika virus alone | pathway fold enrichment | 14.2
COc1c(CCC[P+](c2ccccc2)(c2ccccc2)c2ccccc2)cc2c(c1OC)OCO2.[I-] | NCI-H226 | SRB | – | – | – | TGI | -4.37 log M
CC1=C(O)C(=O)C=C2C1=CC=C1[C@@]2(C)CC[C@@]2(C)[C@@H]3C[C@](C)(C(=O)O)CC[C@]3(C)CC[C@]12C | iPSC-derived cardiomyocytes | concentration-response fit | – | concentration not given | relative to: vehicle | fitted bottom MyBP-C level | 0%
N.N.[Cl][Pt][Cl] | PPC-1 | viability, MTT | – | 72 h | – | EC50 | 27.8 ± 11.1 µM
CC[C@H](C)[C@H](NC(=O)[C@H](CC(N)=O)NC(=O)[C@H](CCCNC(=N)N)NC(=O)[C@@H](NC(=O)[C@@H](NC(=O)[C@H](CC(=O)O)NC(=O)[C@@H](N)CCC(=O)O)[C@@H](C)CC)[C@@H](C)CC)C(=O)N[C@@H](C)C(=O)N[C@@H](CCCNC(=N)N)C(=O)N[C@@H](Cc1c[nH]cn1)C(=O)N[C@@H](CC(C)C)C(=O)N[C@@H](C)C(=O)N[C@@H](CCC(N)=O)C(=O)N[C@H](C(=O)NCC(=O)N[C@@H](CC(=O)O)C(=O)N[C@@H](CO)C(=O)N[C@@H](CCSC)C(=O)N[C@@H](CC(=O)O)C(=O)N[C@@H](CCCNC(=N)N)C(=O)O)C(C)C | BAX-/- MEF expressing BAK only | – | – | – | – | EC50 | 0.54 µM
CN1CCN(C2(CNC3CCN(c4cccc(-c5cc6cc(F)ccc6[nH]5)c4)CC3)CCC2)CC1 | NCI-H226 | – | – | – | – | GI50 | 2050 nM
Cn1nccc1Nc1nccc(-c2cc3c(s2)C(C)(C)N(CCN2CCOCC2)C3=O)n1 | HCT116 | IncuCyte | – | concentration not given, 24 (unit not given) | – | PI-positive cells | 6.83 count and 7.92 count and 8.92 count
C/C=C(/C)C(=O)O[C@H]1C(C)=C2C([C@@H]1OC(=O)CCCCCCC)[C@@](C)(OC(C)=O)C[C@H](OC(=O)CCC)[C@@]1(O)[C@H]2OC(=O)[C@@]1(C)O (stereo partly shown) | C127 LDR GFP reporter cells | silenced GFP reporter induction, activator, high-content imaging | – | retest, two-run mean | – | efficacy | 96%
COc1ccc2c(c1)[nH]c1c(C)nccc12 | DU-145 | bisulfite pyrosequencing, measured: RASSF1A promoter CpG site 30 | – | 10 µM, 16 h | – | DNA methylation | 89.8%
COc1cc(CCC[P+](c2ccccc2)(c2ccccc2)c2ccccc2)c(OC)c2c1OCO2.[I-] | SR | SRB | – | – | – | LC50 | > -4 log M
COc1ccc(S(=O)(=O)Nc2ccc3oc(-c4ccc(NS(=O)(=O)c5cc(F)ccc5OC)cc4)nc3c2)cc1 | DLD-1 colorectal cancer | – | – | 48 h | – | EC50 | 15 to 18 µM
COc1ccc([C@H]2c3[nH]c4ccc(Cl)cc4c3CCN2C(=O)Oc2ccc(Cl)cc2)cc1 | human dermal fibroblasts with PBMC | cytokine secretion, measured: sIL-10 | – | 0.1 µM, 48 h | – | inhibition | 81%
O=S(=O)(Nc1ccc(-c2n[nH]c(=S)o2)cc1)c1ccc(C(F)(F)F)cc1 | MCF7 transfected with human P2X7R | – | – | 10 µM, together with: Bz-ATP 100 µM | relative to: Bz-ATP alone | inhibition of proliferation | 11%
C[C@]12CC[C@H](O)C[C@H]1CC[C@@H]1[C@@H]2CC[C@]2(C)[C@@H](C3=CC(=O)OC3)[C@@H](O)C[C@]12O | iPSC-derived cardiomyocytes | concentration-response curve, measured: MyBP-C protein level | – | 24 h | – | EC50 | 41.5 µM
C/C=C(/C)C(=O)O[C@H]1C(C)=C2[C@H]([C@@H]1OC(=O)CCCCCCC)[C@@](C)(OC(C)=O)C[C@H](OC(=O)CCC)[C@@]1(O)[C@H]2OC(=O)[C@@]1(C)O | HEK-293T | RNA-seq GSEA, measured: Hallmark apical junction | – | 500 nM, 6 h | direction not given | normalized enrichment score | -1.62
C[C@@H]1O[C@@H](O[C@H]2C[C@@H](O)[C@]3(CO)[C@H]4[C@H](O)C[C@]5(C)[C@@H](C6=CC(=O)OC6)CC[C@]5(O)[C@@H]4CC[C@]3(O)C2)[C@H](O)[C@H](O)[C@H]1O | iPSC-derived cardiomyocytes | concentration-response curve, measured: MyBP-C/MYH ratio | – | 24 h | – | EC50 | 0.8 µM
CN1CCc2cc3c(cc2[C@H]1[C@@H]1OC(=O)c2c1ccc1c2OCO1)OCO3 | glutamatergic hiPSC-derived neurons | multi-electrode array | – | concentration not given, 2 h, highest concentration tested | relative to: vehicle | network bursting | 1.9 fold

A few entries again:
SMILES | target or system | test | system | conditions | how to read | measurement | value
COC(=O)/C(C)=C\C[C@@]12OC(C)(C)[C@@H]3C[C@@H](C=C4C(=O)c5c(O)c6c(c(CC=C(C)C)c5O[C@]431)O[C@](C)(CCC=C(C)C)C=C6)C2=O | iPSC-derived cardiomyocytes | concentration-response fit | – | concentration not given | relative to: vehicle | fitted bottom MyBP-C level | 0%
CC1=CC(=O)c2c(O)cccc2C1=O | MOLT-3 | XTT | – | – | relative to: IC50 MRC-5 over IC50 MOLT-3 | selectivity index | 3.62
Oc1ccc(C(c2ccc(O)cc2)(C(F)(F)F)C(F)(F)F)cc1 | HepG2 spheroids | Hoechst flow cytometry | – | 10 µM, 24 h | – | S phase cells | 7.5 ± 2.57%
CN1[C@@H]2CC[C@H]1C[C@@H](OC(=O)C(CO)c1ccccc1)C2 (stereo partly shown) | Plasmodium falciparum | – | W2 | – | – | IC50 | 5.01 µM
Cc1nn(-c2nc3c(F)cc(F)cc3s2)c(O)c1C(c1ccc(C(F)(F)F)cc1)c1c(C)nn(-c2nc3c(F)cc(F)cc3s2)c1O | RAW-ISG | CCK-8 | – | 6.25 µM | – | viability | 106% and 98.6% and 102% and 101% and 103%
CC(C)N1CCC(NC2CCN(c3cccc(-c4cc5cc(F)ccc5[nH]4)c3)CC2)CC1 | SNB-75 | – | – | – | – | GI50 | 1450 nM
